Results of several laboratories.
Every numbered part comes from another study and shows a few of its results, in no order. Substitutions count along the parent as printed.

Set 1
Target: RING finger protein unkempt homolog, zinc fingers 1-6, GST-SBP tag (UNK, Homo sapiens, UniProt Q9C0B0, residues 30-357)
Method: RNA Bind-n-Seq
Molecule type: RNA
Sample: in vitro
Concentration: not given
Setting: RNA with constant flanks, ends assumed
Baseline: input RNA pool
Direction: higher = stronger binding
Target sequence (chain): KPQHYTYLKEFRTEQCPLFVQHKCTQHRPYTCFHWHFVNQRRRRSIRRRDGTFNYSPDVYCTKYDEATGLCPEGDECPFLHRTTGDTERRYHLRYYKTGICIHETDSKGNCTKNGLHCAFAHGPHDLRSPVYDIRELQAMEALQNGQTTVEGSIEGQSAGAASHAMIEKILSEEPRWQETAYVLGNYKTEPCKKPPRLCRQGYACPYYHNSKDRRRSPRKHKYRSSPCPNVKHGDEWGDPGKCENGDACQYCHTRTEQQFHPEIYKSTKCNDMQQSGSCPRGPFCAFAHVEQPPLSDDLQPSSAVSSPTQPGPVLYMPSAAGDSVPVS
Sequence | bound/input enrichment
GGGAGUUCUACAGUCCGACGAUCAUUUUUUUUUUUAAAUGUGUGUAGACUGUAACUUUCUUUUCAGUUCGUAUGCAGAACAUAUUCCGCCAUUACCCAUGCAACACCACCCGAUAUAUUACUGAUUUAGAAGCAAAGAUUUCACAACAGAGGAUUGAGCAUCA | 1.37 ratio
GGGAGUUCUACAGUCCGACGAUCUCCCAUGACCAAAGGACUCUGAUCACUGGCAUGGCUUCCGGCAGCAUUGUAGCUUUUAAUACCGAUUUUAAUCGGUGGCAUUAUGAGCAUCAGAACAGGUACUGAAGAGAAGCAGCAGAACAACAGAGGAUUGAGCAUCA | 0.128 ratio
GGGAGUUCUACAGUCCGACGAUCCCUCUGGCCACUUAUGCCCCUGUCAUCUCUGCUGAGAAAGCCUACCAUGAGCAGCUUACAGCCGCAGAGAUCACCAAUGCCUGCUUUGAGCCAGCCAACCAGAUGGUGAAAUGUGACCCUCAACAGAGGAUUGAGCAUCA | 0.115 ratio
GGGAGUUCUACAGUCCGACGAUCGCCAUCUAUGACAUCUGUCGUAGAAACCUCGAUAUUGAGCGUCCAACCUAUACUAACCUGAACCGGUUAAUAGGUCAAAUUGUGUCCUCCAUCACUGCUUCCCUGAGAUUUGAUGGAGCCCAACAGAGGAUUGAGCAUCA | 0.0818 ratio
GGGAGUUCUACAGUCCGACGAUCGAUGAUGUAGCAGAAGCAGAUAUAAUUUCUACAGUAGAAUUUAAUCAUUCUGGAGAAUUACCCGCAACAGGAGAUAAAGGUGGUAGAGUUGUCAUCUUUCAACAGGAGCAGGAGAACAAACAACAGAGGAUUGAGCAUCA | 0.436 ratio
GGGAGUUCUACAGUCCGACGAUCGCCUGGCUUGUGGAUCAUGUAUAUGCCAUCCGCGAGGCAGCCACCAGCAACCUGAAGAAGCCCGUGGAAAAGUUUGGGAAGGAGUGGGCCCAUGCCACAAUCAUCCCCAAGGUCUUGGCCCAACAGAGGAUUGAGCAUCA | 0.107 ratio
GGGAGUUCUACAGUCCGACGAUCGAUGGGAAAUGUGGACUUUACAAGUAUAUGUUAUAUAUACUUGCAAUGUGACAUGGUUCUGCCGAUCAUUUUAUAAUAAUAAAUAUUUUAAUUUAUCAUAACAUAUAAAAGAAACCUUUGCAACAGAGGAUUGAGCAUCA | 4.73 ratio

Set 2
Target: Histone acetyltransferase KAT6A, both winged helices, GST fusion (KAT6A, Homo sapiens, UniProt Q92794, residues 1-181)
Method: protein binding microarray
Molecule type: double-stranded DNA, one strand shown
Sample: in vitro
Concentration: not given
Setting: 8-mer, flanks averaged, mean of 2 arrays, mostly near background
Baseline: not given
Direction: higher = stronger binding
Target sequence (chain): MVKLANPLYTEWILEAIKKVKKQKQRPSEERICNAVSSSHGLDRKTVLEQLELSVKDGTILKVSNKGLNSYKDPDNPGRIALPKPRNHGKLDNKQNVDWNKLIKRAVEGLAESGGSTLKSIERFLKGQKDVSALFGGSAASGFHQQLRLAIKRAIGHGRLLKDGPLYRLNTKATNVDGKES
Sequence | E-score
ATAGGATC | -0.134
CAATAAGG | -0.184
GGTGGACA | -0.0309
TAGCAGAA | -0.14
ATTTGGCA | -0.219
TACGGGCA | 0.306
CGTTTGGA | -0.0926
AGACCCTA | -0.173
ACTATGAT | -0.144
ACGTGTAC | -0.112
CCAAATTC | -0.214
ACTGGAGC | -0.0233
GGGCTTAC | -0.101
CGCTCTGA | 0.2
AAACACCG | 0.244
AACGAAAC | 0.02
TCATAGCA | -0.173
CGCTGCTC | 0.115
ATCCTTGA | -0.132
ATTTTCCC | -0.0288
ACAGCGTG | 0.196
CCCGCAGA | 0.224
CCGGCGGC | 0.363
AGTCGTAG | -0.216
AAAGTCGC | 0.0358

Set 3
Target: Fragile X messenger ribonucleoprotein 1, C-terminal low-complexity region (Fmr1, Mus musculus, UniProt P35922)
Method: RNA Bind-n-Seq
Molecule type: RNA
Sample: in vitro
Concentration: 200 nM
Setting: whole 134-nt RNA, ends assumed
Added: 150 mM KCl
Baseline: input library
Direction: higher = stronger binding
Sequence | log2 enrichment
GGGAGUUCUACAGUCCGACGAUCUAACUUUAGAGGAGGAUCUGAUGGAUAUGGCAGUGGACGUGGAUUUGGGGAUGGCUAUAAUGGGUAUAGAGGAGGACCUGGAGGUGGCAAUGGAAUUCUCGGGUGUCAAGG | 0.245
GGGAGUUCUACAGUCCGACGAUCCUGUGCUACACAUCGUAUGUACCGAAUCGGGGCCCCCCCGGGCCCCCCCGGGGCCCCCCCGGAAAGUAUUAUGUUACGCCGUUCGGAUCUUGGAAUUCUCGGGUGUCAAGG | -1.26
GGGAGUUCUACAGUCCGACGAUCUGACCUGCACGGACAUCAACACCCUGACAAGGCAGAAGGAACUUCUCCUGCAGAAGCUGAGCACAUUUGAGGAGACCAACCGCACCCUCCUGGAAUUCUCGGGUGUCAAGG | 0.755
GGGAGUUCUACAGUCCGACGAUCCACAGACAACACGCACCGACACAGACACAGAGGGAAGGGGUUGGGAUGGGGACAGGGUGCACAGCAGGGCGGGGUAGGACCCCAGCCCCUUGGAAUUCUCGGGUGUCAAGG | 1.16
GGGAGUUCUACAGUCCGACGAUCGUCCUGUGCUACACAUCGUAUGUACCGAAUCGGUUUUUUUGGAAAAAGGAAAAAAAGGAAAGUAUUAUGUUACGCCGUUCGGAUCUGCACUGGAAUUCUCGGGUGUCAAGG | -0.922
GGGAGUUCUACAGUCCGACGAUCCAAGUCCUGUGCUACACAUCGUAUGUACCGAAUCGGGGCCCCGGCCCCGGCCCCGGAAAGUAUUAUGUUACGCCGUUCGGAUCUGCACUUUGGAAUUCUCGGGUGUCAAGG | -0.644
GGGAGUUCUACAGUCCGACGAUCUCCUGUGCUACACAUCGUAUGUACCGAAUCGGGGUUUGGGGAAAGGGGAAAAAAAGGGGAAAGUAUUAUGUUACGCCGUUCGGAUCUGCAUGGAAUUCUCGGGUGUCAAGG | 0.378
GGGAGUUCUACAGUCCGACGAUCUGGGAGGUGGAUUUUGUUUAUUUUUUUAGCUCAUUUCCAGGGGUGGGAAUUUUUUUUUAAUAUGUGUCAUGAAUAAAGUUGUUUUUUAAAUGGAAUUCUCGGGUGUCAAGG | 0.266
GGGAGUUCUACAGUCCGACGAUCAGUCCUGUGCUACACAUCGUAUGUACCGAAUCGGGGAAAGGGGAAAAAGGGGAGGGGAAAGUAUUAUGUUACGCCGUUCGGAUCUGCACUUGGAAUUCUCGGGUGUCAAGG | 0.545
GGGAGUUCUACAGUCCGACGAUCGGCGGAGCAGCUGAUGGAGGAGUGGAACGAAGACCUAGACGGCAUGGAGGGUUUCGUGCUGGAGGGCAAGAAGUUUGCGCGGCUGCCGGAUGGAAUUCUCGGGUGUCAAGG | -0.993
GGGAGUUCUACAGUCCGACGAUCUAACUUUAGAGGAGGAUCUGAUGGAUAUGGCAGUGGACGUGGAUUUGGGGAUGGCUAUAAUGGGUAUGGGGGAGGACCUGGAGGUGGCAAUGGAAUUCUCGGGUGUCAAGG | 0.209
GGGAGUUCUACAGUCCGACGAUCGCAGGAAGUAAAAACAAAUGGAUAUGCUUCGGAUAGUGGCAGGGGUGGGGGUUGCUAAGGAAAGGGUGGGAUGGGAGUGGGUAAAGAGUUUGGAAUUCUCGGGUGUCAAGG | -0.00265
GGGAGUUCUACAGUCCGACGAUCCCUCAAGUCCUGUGCUACACAUCGUAUGUACCGAAUCGGGGUUGGUUGGUUGGAAAGUAUUAUGUUACGCCGUUCGGAUCUGCACUUCCAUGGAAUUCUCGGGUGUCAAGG | 0.259
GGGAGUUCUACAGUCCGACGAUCUAGUGAAAUUUCUAAUAUAUAUAUUUUUUUCUUUAGGAGAAGAAACGAAUGCAUCAGAUCAACAGAAUGAACCCCAGUUAGGCCUGAAAGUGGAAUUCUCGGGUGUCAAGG | -0.556

Set 4
Target: ABI1, truncated, D143A, DHFR fusion (Arabidopsis thaliana)
Method: DHFR PCA, deep sequencing
Sample: yeast
Setting: methotrexate growth selection, single substitutions
Added: (+)-ABA 200 µM
Baseline: wild-type fitted maximum
Direction: higher = stronger binding
Starting sequence: PYL1, truncated, DHFR fusion (Arabidopsis thaliana); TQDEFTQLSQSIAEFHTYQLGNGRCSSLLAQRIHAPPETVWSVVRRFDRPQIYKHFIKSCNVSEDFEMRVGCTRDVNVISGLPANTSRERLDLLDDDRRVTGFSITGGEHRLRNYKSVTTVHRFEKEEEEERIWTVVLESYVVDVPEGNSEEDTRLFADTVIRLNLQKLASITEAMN
Variant | relative binding score
V121P | 1.41%
F103M | 76.1%
V40S | -0.142%
H122Y | 27.4%
G148K | 74.4%
V142I | 101%
Q31P | -1.4%
R46I | 60.1%
A35K | 40.4%

Set 5
Target: Interferon regulatory factor 7, full length, phosphomimetic (IRF7, Homo sapiens, UniProt Q92985, residues 1-503, S101K/S471D/S472D/S475D/S476D/S477D/S483D/S484D/S487D)
Method: protein-binding microarray
Molecule type: double-stranded DNA, one strand shown
Sample: in vitro
Concentration: 250 nM
Setting: 60-bp whole probe
Added: salmon DNA 0.4 mg/ml
Baseline: random background probes
Direction: higher = stronger binding
Shared flanks, not repeated: GCCTAGCAC … GTCTTGATTCGCTTGACGCTGCTG
Residues (chain): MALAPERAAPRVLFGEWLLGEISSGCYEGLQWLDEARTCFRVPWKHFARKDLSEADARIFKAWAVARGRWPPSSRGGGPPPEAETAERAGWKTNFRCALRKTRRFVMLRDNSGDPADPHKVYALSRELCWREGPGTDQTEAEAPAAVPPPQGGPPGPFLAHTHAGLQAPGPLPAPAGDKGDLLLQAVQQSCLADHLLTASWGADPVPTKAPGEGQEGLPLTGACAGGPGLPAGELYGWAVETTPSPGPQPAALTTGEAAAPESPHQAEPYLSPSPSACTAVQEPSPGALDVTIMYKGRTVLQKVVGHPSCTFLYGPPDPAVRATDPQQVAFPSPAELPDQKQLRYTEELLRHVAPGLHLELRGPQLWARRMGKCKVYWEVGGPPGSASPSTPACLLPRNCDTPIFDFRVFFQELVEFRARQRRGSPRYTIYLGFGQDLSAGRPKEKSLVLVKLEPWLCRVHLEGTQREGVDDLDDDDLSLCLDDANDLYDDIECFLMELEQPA
Sequence | log fluorescence [z-score]
CATCATTGCTTTCTCTTTCAGTGCTAG | 0.894
GAAGGTTTCGGGTATCGGGACGTGCTA | 7.28
GACGAACTGGGGTATCGTGACGTGCTA | -0.607
TTAGATATCTGTCTCGATTAGTGCTAG | 0.557
TCATTTCTCCTATTTAAACTGTGCTAG | 2.66
TCAATTTTCAATTCCTGACTGTGCTAG | 0.49
TTAGATTTCACTCTCGATTAGTGCTAG | 1.24
TTAGGACTGGGTTTCGGTAAGTGCTAG | 1.94
CTCGTTTACATTTTCCAAATGTGCTAG | 2.2
GACGGCATCGGGTATCGGGACGTGCTA | -0.596
GACGGTATCTGTATCGGGACGTGCTAG | 0.208
TTAGGTCTCCTACTGCTCTAGTGCTAG | -0.314
GCCGGTATCGGGTATCGGGACGTGCTA | 0.524
GCATCGTAAGCAAAAATGATGTGCTAG | 0.426
GGAAGCTTCTTTTTTATTCTGTGCTAG | 0.0518
TTAGGTAGCCTACTGCTTTAGTGCTAG | -0.813
TTAGGACTGGACTATCGGATAGTGCTA | 0.0125
TTAGCTTTCCTACTGCTTTAGTGCTAG | 0.79
GACGGACTGAACACTGGGGACGTGCTA | -0.708
TTAGGTCTCAGTCTCGATTAGTGCTAG | 1.89
TTAAGTTTCGGACTGGGTTAGTGCTAG | 4.57
GACGGTTTCGGTTTAGGGACGTGCTAG | 14.5
GACGGTTTCCTTCTCCTGACGTGCTAG | 2.66

Excerpt of the above (set 5):
Sequence | log fluorescence [z-score]
TTAGATATCTGTCTCGATTAGTGCTAG | 0.557
CATCATTGCTTTCTCTTTCAGTGCTAG | 0.894
TTAGGTCTCCTACTGCTCTAGTGCTAG | -0.314
TTAGGTAGCCTACTGCTTTAGTGCTAG | -0.813
TTAGCTTTCCTACTGCTTTAGTGCTAG | 0.79
GACGGTATCTGTATCGGGACGTGCTAG | 0.208
GACGGTTTCGGTTTAGGGACGTGCTAG | 14.5
GCATCGTAAGCAAAAATGATGTGCTAG | 0.426
GACGGTTTCCTTCTCCTGACGTGCTAG | 2.66
